Measurements gathered from unrelated publications.
Protocols differ between the studies behind these lines. ± marks the error that the study gave.
UGT1A4: UDP-glucuronosyltransferase 1A4 (UGT1A4, Homo sapiens, UniProt P22310)
UniProt P22310, sequence (whole entry, looked up): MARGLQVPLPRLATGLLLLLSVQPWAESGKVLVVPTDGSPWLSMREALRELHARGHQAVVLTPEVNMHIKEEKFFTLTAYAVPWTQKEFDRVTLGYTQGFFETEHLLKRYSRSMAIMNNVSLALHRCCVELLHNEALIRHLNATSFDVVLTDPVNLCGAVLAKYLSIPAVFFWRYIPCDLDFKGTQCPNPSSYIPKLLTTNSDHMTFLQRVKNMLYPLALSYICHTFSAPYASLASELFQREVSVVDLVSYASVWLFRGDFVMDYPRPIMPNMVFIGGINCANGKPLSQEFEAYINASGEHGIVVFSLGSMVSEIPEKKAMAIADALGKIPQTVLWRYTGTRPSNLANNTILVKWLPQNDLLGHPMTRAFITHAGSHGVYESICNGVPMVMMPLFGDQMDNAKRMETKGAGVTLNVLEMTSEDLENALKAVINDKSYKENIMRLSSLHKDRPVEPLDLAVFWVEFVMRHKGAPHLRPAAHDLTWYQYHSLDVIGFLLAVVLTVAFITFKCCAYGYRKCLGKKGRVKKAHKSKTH
MAPK3: Mitogen-activated protein kinase 3 (MAPK3, Homo sapiens, UniProt P27361)
UniProt P27361, sequence (whole entry, looked up): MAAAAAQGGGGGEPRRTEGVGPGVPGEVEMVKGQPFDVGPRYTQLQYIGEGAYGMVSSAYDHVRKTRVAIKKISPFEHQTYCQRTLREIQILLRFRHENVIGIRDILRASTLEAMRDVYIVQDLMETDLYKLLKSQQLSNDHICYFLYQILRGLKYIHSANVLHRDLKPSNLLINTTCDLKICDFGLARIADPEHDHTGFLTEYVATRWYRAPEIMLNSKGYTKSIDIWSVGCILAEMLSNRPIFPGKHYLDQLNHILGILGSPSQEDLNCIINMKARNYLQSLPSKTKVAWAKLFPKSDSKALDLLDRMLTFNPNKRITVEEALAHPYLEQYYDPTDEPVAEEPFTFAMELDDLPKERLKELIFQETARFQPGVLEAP
DDR1: Epithelial discoidin domain-containing receptor 1 (DDR1, Homo sapiens, UniProt Q08345)
UniProt Q08345, sequence (whole entry, looked up): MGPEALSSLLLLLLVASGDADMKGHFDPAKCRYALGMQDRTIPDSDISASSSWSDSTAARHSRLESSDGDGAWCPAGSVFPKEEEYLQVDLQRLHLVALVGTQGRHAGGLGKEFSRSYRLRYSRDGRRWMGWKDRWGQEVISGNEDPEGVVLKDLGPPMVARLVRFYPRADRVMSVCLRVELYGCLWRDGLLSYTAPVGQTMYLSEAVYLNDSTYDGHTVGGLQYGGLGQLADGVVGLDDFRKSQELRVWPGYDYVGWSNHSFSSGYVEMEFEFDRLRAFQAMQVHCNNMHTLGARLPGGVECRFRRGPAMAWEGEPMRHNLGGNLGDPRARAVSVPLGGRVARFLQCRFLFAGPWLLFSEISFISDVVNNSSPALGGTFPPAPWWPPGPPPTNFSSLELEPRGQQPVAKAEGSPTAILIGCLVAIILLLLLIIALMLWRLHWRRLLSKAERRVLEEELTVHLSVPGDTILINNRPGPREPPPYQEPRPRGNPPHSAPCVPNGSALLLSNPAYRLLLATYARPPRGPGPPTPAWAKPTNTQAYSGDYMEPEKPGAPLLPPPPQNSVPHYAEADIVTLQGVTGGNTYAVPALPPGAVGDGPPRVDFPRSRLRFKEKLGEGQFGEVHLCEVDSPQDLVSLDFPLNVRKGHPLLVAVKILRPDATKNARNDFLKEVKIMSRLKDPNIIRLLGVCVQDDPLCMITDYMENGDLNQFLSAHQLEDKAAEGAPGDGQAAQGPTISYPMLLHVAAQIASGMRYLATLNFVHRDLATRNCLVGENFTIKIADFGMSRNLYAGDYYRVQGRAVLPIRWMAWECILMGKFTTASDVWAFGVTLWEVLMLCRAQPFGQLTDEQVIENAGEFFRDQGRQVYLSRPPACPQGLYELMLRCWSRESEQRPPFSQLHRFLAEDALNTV
UniProt P54764, sequence (whole entry, looked up): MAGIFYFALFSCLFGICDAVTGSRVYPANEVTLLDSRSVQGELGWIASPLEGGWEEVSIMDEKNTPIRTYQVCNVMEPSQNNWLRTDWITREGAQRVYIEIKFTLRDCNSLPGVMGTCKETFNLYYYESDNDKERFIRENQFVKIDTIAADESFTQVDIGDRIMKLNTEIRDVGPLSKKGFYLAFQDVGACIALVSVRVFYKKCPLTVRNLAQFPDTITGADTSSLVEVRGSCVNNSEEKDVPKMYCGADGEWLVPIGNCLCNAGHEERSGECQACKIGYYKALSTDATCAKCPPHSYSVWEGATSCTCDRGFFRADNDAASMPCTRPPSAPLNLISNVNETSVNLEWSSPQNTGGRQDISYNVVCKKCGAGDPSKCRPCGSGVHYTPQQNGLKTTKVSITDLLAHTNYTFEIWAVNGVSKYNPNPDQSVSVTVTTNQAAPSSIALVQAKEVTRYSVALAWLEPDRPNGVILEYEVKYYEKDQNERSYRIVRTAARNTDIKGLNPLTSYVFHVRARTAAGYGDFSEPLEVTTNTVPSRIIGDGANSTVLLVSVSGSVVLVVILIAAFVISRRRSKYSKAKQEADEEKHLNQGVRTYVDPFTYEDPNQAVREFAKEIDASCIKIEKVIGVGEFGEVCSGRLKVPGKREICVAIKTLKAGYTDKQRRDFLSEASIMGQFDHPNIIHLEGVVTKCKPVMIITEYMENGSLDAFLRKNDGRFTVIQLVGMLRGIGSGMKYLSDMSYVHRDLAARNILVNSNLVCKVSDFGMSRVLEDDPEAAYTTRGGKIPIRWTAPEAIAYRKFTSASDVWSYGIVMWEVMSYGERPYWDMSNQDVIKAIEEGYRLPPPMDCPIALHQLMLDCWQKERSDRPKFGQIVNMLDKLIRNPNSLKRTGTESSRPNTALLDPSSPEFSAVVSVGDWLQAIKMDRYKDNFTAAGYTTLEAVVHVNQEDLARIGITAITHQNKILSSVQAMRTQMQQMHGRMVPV
UniProt Q9UPZ9, sequence (whole entry, looked up): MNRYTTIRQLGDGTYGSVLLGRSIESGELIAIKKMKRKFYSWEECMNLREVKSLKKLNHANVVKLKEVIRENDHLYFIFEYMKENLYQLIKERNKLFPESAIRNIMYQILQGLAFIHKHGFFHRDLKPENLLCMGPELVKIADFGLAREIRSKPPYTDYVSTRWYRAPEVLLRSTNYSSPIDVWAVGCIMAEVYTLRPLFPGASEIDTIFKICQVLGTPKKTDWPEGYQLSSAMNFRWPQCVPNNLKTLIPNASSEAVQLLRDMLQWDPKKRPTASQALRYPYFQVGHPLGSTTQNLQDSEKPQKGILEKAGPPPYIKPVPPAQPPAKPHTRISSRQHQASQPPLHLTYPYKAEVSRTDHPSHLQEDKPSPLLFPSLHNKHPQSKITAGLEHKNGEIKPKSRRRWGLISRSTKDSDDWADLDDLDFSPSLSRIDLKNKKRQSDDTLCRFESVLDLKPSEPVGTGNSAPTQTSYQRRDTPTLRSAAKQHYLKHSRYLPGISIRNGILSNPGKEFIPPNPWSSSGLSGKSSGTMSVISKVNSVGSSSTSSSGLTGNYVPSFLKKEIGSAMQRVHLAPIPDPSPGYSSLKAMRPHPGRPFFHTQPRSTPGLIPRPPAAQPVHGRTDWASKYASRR
UniProt Q96L34, sequence (whole entry, looked up): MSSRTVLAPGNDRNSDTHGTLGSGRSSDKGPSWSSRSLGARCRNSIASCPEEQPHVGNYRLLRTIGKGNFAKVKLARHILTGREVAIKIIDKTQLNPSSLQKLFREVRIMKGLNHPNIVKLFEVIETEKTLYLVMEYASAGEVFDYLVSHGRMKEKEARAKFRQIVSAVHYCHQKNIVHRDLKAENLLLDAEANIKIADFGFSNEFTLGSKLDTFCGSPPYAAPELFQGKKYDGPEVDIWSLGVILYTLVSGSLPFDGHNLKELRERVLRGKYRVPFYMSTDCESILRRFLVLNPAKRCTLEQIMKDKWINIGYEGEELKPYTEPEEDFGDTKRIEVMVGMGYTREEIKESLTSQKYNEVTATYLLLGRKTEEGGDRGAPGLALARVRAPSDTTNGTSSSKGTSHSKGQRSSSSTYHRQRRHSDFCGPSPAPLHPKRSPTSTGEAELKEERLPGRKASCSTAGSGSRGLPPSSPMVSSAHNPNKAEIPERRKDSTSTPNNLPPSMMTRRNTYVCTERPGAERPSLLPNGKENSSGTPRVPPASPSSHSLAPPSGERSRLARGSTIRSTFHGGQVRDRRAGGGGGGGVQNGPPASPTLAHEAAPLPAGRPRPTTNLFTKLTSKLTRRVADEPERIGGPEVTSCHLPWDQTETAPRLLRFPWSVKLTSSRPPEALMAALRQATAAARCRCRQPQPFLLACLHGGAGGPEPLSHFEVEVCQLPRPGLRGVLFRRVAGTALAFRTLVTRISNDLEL
UniProt O14920, sequence (whole entry, looked up): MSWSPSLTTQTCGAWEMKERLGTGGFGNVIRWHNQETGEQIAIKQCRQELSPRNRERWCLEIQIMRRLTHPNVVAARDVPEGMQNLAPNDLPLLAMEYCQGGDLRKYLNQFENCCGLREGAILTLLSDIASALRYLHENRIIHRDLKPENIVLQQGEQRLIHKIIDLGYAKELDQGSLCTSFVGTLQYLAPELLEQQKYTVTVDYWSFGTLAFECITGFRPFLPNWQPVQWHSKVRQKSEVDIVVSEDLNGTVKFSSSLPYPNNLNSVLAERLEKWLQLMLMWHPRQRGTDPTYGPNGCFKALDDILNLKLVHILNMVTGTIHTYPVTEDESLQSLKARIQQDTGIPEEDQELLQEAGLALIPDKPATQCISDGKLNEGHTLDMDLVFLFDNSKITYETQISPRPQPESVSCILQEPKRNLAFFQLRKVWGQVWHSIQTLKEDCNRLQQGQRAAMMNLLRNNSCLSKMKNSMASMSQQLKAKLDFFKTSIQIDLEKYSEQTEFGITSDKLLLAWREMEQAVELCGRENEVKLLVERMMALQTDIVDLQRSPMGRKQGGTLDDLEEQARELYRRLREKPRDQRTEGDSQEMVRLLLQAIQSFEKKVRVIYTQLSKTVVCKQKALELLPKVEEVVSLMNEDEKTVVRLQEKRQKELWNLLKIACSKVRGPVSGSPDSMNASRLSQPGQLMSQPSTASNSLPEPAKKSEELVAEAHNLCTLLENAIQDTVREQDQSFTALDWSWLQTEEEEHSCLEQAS

The remaining activity of `O=C(NC1CCC1)c1ccc2nc(-c3cccc(NS(=O)(=O)NCCN4CCCCC4)c3)cn2c1` is reported as 79% (EPHA4 (Homo sapiens, UniProt P54764); enzyme activity; 10 µM).
The remaining activity of `NC/C(=C\F)COc1cccc(Cn2c(=S)[nH]c(=O)c3[nH]cnc32)c1` is reported as 94% (Myeloperoxidase (MPO, Homo sapiens, UniProt P05164); LDL lipid peroxidation, inhibitor, cholesteryl ester hydroperoxide; 0.00069 µM).
With `O=c1cc(-c2ccc(O)c(-c3c(O)cc(O)c4c(=O)cc(-c5ccc(O)cc5)oc34)c2)oc2cc(O)cc(O)c12` the remaining activity was roughly 37% (UGT1A4; glucuronidation, inhibitor; human liver microsomes; 10 µM, added: probe substrate 50 µM; baseline: no inhibitor).
`CCN(CC)CCCC(C)Nc1ccnc2cc(Cl)ccc12` (stereo not drawn) has a metabolic activity of 0.9 ± 0.13 (COS-7; WST-8; 50 µM, 24 h, 0.1% DMSO, unit not given; baseline: vehicle control).
`COc1cc2c(c(O)c1OC)C(=O)c1c(cc(C)c(O)c1OC)C2=O` gave a cell viability of 99.8 ± 7.5% (HepaRG co-cultured with HK-2; MTT; 16.67 µM, 48 h; baseline: untreated control).
The cholesterol change of `CCc1cc(C(=O)NC)c2nccc(N3CCc4c(cc(Cn5ccnc5)cc4-c4cn(C)nc4C(F)(F)F)C3=O)c2c1` is reported as -7.7% (Sprague Dawley rats; oral, 100 mg/kg twice daily, 7 days; baseline: vehicle).
`COc1cc(-c2cncc3c2CN(C)Cc2cc(N4CCNCC4)ccc2-3)cc(OC)c1OC` gave a remaining activity of 104% (IKBKB (Homo sapiens, UniProt O14920); kinase activity; 1 µM, human enzyme, added: ATP 10 µM; baseline: DMSO control).
`C=CC(=O)N1CCC[C@@H](n2nc(-c3ccc(Oc4ccccc4)cc3)c3c(N)ncnc32)C1` has a remaining activity of 91.5 ± 0.9% (MAPK3; kinase activity, inhibitor, HotSpot radiometric; 100 nM, added: ATP 10 µM).
The remaining activity of `CNCC(=O)O` is reported as 21.7% (SLC6A9 (Homo sapiens, UniProt P48067, G373S); glycine uptake, inhibitor; 5000 µM, added: [3H]glycine; baseline: no inhibitor).
`Cn1c(=O)n(-c2ccc(C(C)(C)C#N)cc2)c2c3cc(-c4cnc5ccccc5c4)ccc3ncc21` gave a remaining activity of 80% (VEGFR; enzyme activity; 10 µM).
With `CNc1ncc2c(/C=C/C(=O)N3CCC(OC)CC3)nn(Cc3cccc(C(F)(F)F)c3)c2n1` the remaining activity was 92% (EPHA6 (Homo sapiens, UniProt Q9UF33); kinase activity, inhibitor; 1 µM; baseline: untreated control).
With `CN(C)CC#Cc1ccc2[nH]c3c(c2c1)-c1nc(N)ncc1CCC3` the remaining activity was 97% (MARK4 (Homo sapiens, UniProt Q96L34); kinase activity, inhibitor, radiometric; 1 µM, added: ATP at Km).
With `Cc1cc(Nc2cc(N3CCN(C)CC3)nc(Sc3ccc(NC(=O)C4CC4)cc3)n2)[nH]n1` the remaining activity was 99% (DAPK2 (Homo sapiens, UniProt Q9UIK4); kinase activity, KinaseProfiler; 0.03 µM, species human; baseline: control).
For `O=C(O)c1ccc(Nc2ncc3c(n2)-c2ccc(Cl)cc2C(c2c(F)cccc2F)=NC3)cc1`, the remaining activity was 88% (Ros(h); kinase activity; 1 µM).
`COc1cc(N2CCN(C)CC2)ccc1Nc1nc(N)n(C(=O)NCc2ccccc2S(=O)(=O)C(C)C)n1` gave a remaining activity of 1.9% (EGFR (Homo sapiens, UniProt P00533, L861Q); enzyme activity; 10 µM; baseline: control).
`O=C1c2cccc(O)c2C(=O)c2c(O)cc(CO)cc21` gave a cell viability of 79.2 ± 3.78% (HepaRG co-cultured with HK-2; MTT; 16.67 µM, 48 h; baseline: untreated control).
With `C=CC(=O)N1CCC[C@@H](n2nc(-c3ccc(Oc4ccccc4)cc3)c3c(N)ncnc32)C1` the remaining activity was 100% (ERBB3 (Homo sapiens, UniProt P21860); 0.1 µM).
`Cc1cc(NC(=O)c2cccc(NC(=O)/C=C/CN(C)C)c2)ccc1Nc1nccc(-c2cccnc2)n1` gave a remaining activity of 1.02 (MAPK8 (Homo sapiens, UniProt P45983); enzyme activity, inhibitor; 0.0007527 µM, 18 h, unit not given, added: GSH 10 mM pre-incubation; baseline: vehicle).
`COc1cc(N2CCN(C)CC2)ccc1Nc1nc(N)n(C(=S)NCc2c(Cl)cccc2Cl)n1` gave a remaining activity of 23% (CILK1 (Homo sapiens, UniProt Q9UPZ9); enzyme activity; 10 µM; baseline: control).
With `C[C@H]1[C@H](OC(=O)CCC(=O)O)O[C@@H]2O[C@@]3(C)CC[C@H]4[C@H](C)CC[C@@H]1[C@@]24OO3` the remaining activity was 79.4% (Non-structural polyprotein pORF1, helicase domain (Hepatitis E virus genotype 1, UniProt P33424); ATPase activity, inhibitor, colorimetric; 19.5 µM, preincubation 30 min, added: ATP 200 µM; baseline: untreated).
`COC(=O)c1cn(C)c2ccc(-c3cccnc3)cc12` gave a metabolic activity of 0.21 ± 0.01 (COS-7; WST-8; 30 µM, 24 h, 0.1% DMSO, unit not given; baseline: vehicle control).
The remaining activity of `COc1cc(F)ccc1-c1ncnc(Nc2cccc(C[S@](C)(=N)=O)c2)n1` is reported as 87% (RIPK2 (Homo sapiens, UniProt O43353); kinase activity; 10 µM, added: 10 µM ATP).
`c1cnc2ccc(Nc3nc(NC4CC4)c4nc[nH]c4n3)cc2c1` gave a remaining activity of 90% (DDR1; kinase activity, inhibitor, SelectScreen kinase profiling; 1 µM; baseline: control).
The remaining activity of `C[C@@H]1CC[C@@]2(OC1)O[C@H]1C[C@H]3[C@@H]4CC[C@H]5C[C@@H](O)CC[C@]5(C)[C@H]4CC(=O)[C@]3(C)[C@H]1[C@@H]2C` is reported as roughly 35% (UGT1A4; glucuronidation, inhibitor; human liver microsomes; 10 µM, added: probe substrate 50 µM; baseline: no inhibitor).
For `COc1cc(Nc2ncc3c(n2)-c2ccc(Cl)cc2C(c2c(F)cccc2OC)=NC3)ccc1C(=O)O`, the remaining activity was 102% (ROCK2; kinase activity; 1 µM).
With `O=C1NC(=O)/C(=C/c2ccc(-c3ccc(F)cc3O)o2)S1` the remaining activity was 10% (MAPK15 (Homo sapiens, UniProt Q8TD08); enzyme activity; 10 µM).
With `C=CC(=O)N1CCC([C@@H]2CCNc3c(C(N)=O)c(-c4ccc(Oc5ccccc5)cc4)nn32)CC1` the remaining activity was 76.1 ± 2.5% (MAPK3; kinase activity, inhibitor, HotSpot radiometric; 100 nM, added: ATP 10 µM).
`CN1CCN(C(=O)[C@H](CCCN[C@@H]2C[C@H]2c2ccc(F)cc2)NC(=O)c2ccc(-n3ccnn3)cc2)CC1` has a remaining activity of no more than 15% (panel of kinases; kinase activity, SelectScreen profiling; 10 µM).
`COc1ccc(F)cc1C(=O)NCc1ccc(-c2nn([C@@H](C)C(F)(F)F)c(N)c2C(N)=O)cc1` gave a remaining activity of 75 ± 0.4% (DDR1; kinase activity, inhibitor, HotSpot radiometric; 100 nM, added: ATP 10 µM).
For `COc1cc(N2CCN(C)CC2)ccc1Nc1nc(N)n(C(=O)NCc2c(Cl)cccc2Cl)n1`, the remaining activity was 1.8% (ALK (Homo sapiens, UniProt Q9UM73); enzyme activity; 10 µM; baseline: control).

Repeated from above:
`COc1cc2c(c(O)c1OC)C(=O)c1c(cc(C)c(O)c1OC)C2=O` gave a cell viability of 99.8 ± 7.5% (HepaRG co-cultured with HK-2; MTT; 16.67 µM, 48 h; baseline: untreated control).
The cholesterol change of `CCc1cc(C(=O)NC)c2nccc(N3CCc4c(cc(Cn5ccnc5)cc4-c4cn(C)nc4C(F)(F)F)C3=O)c2c1` is reported as -7.7% (Sprague Dawley rats; oral, 100 mg/kg twice daily, 7 days; baseline: vehicle).
`COc1cc(-c2cncc3c2CN(C)Cc2cc(N4CCNCC4)ccc2-3)cc(OC)c1OC` gave a remaining activity of 104% (IKBKB (Homo sapiens, UniProt O14920); kinase activity; 1 µM, human enzyme, added: ATP 10 µM; baseline: DMSO control).
